Experimental data from different studies.
Numbers after ± are the reported error.
Cell line: human red blood cells

| Structure (SMILES) | test | system | conditions | how to read | measurement | value |
| --- | --- | --- | --- | --- | --- | --- |
| CC[C@H](C)[C@H](NC(=O)[C@H](Cc1ccccc1)NC(=O)[C@H](CC(=O)O)NC(=O)[C@H](CCCCN)NC(=O)[C@H](C)NC(=O)[C@H](CCCCN)NC(=O)[C@H](CC(N)=O)NC(=O)[C@H](CC(C)C)NC(=O)[C@H](Cc1c[nH]c2ccccc12)NC(=O)[C@H](CCC(=O)O)NC(=O)[C@H](CCCCN)NC(=O)[C@@H](NC(=O)CN)[C@@H](C)O)C(=O)N[C@@H](CCCCN)C(=O)N[C@@H](CCC(=O)O)C(=O)N[C@@H](CCCCN)C(=O)NCC(=O)N[C@@H](CC(C)C)C(=O)NCC(=O)N[C@@H](CCSC)C(=O)N[C@@H](CC(C)C)C(=O)N[C@@H](CO)C(=O)N[C@@H](C)C(=O)N[C@@H](C)C(=O)N[C@@H](C)C(=O)N[C@@H](CC(N)=O)C(=O)N[C@@H](C)C(=O)N[C@@H](C)C(=O)N[C@@H](CC(C)C)C(=O)N[C@@H](CC(N)=O)C(=O)O | – | – | 1 h | – | HC50 | > 150 µM |
| CC[C@H](C)[C@H](NC(=O)[C@H](C)NC(=O)[C@H](CC(N)=O)NC(=O)[C@H](CCCNC(=N)N)NC(=O)[C@H](CCCNC(=N)N)NC(=O)[C@H](CC(N)=O)NC(=O)[C@H](CCCNC(=N)N)NC(=O)[C@H](CCCNC(=N)N)NC(=O)[C@H](C)NC(=O)[C@@H](NC(=O)[C@H](CO)NC(=O)[C@@H](NC(=O)[C@@H](NC(=O)[C@H](CS)NC(=O)[C@H](CCCCN)NC(=O)[C@@H](N)CCCNC(=N)N)C(C)C)[C@@H](C)CC)C(C)C)C(=O)N[C@@H](CCCCN)C(=O)N[C@H](C(=O)N[C@@H](CC(C)C)C(=O)N[C@@H](CS)C(=O)N[C@@H](CC(N)=O)C(=O)O)[C@@H](C)CC | – | – | 128 µg/mL, 3 h, 37 °C | baseline: Triton X-100 | hemolysis | 0.4% |
| CC[C@H](C)[C@H](NC(=O)[C@@H](CCCCN)NC(=O)[C@@H](CCCCN)NC(=O)[C@H](Cc1ccccc1)NC(=O)[C@H](CC(C)C)NC(=O)[C@@H](CCCCN)NC(=O)[C@H](Cc1c[nH]c2ccccc12)NC(=O)[C@H](CCCCN)NC(C)=O)C(=O)NCC(=O)N[C@@H](C)C(=O)N[C@H](C(=O)N[C@@H](CC(C)C)C(=O)N[C@H](CCCCN)C(=O)N[C@H](CCCCN)C(=O)N[C@@H](CC(C)C)C(N)=O)C(C)C | – | – | 64 µM, 1 h, 37 °C | baseline: Triton X-100 | hemolysis | < 1% |
| CC[C@H](C)[C@H](NC(=O)[C@H](C)NC(=O)[C@H](CCCCN)NC(=O)[C@H](CCCCN)NC(=O)[C@@H](N)CCCNC(=N)N)C(=O)N[C@@H](CCCCN)C(=O)N[C@@H](CC(C)C)C(=O)N[C@H](C(=O)N[C@@H](CCCCN)C(=O)N[C@@H](CCCCN)C(=O)N[C@@H](CC(C)C)C(=O)N[C@H](C(=O)N[C@@H](CCCCN)C(=O)N[C@@H](CCCCN)C(=O)N[C@@H](CC(C)C)C(=O)N[C@@H](CCCCN)C(=O)N[C@@H](CCCCN)C(=O)N[C@@H](C)C(=O)N[C@@H](CC(C)C)C(=O)N[C@@H](CCCCN)C(=O)O)C(C)C)C(C)C | – | human blood | – | – | HC50 | > 128 mg/L |
| CC[C@H](C)[C@H](NC(=O)[C@H](CCCCN)NC(=O)[C@H](CC(N)=O)NC(=O)[C@H](Cc1c[nH]c2ccccc12)NC(=O)[C@H](Cc1ccccc1)NC(=O)[C@H](CCCCN)NC(=O)[C@H](CCCNC(=N)N)NC(=O)[C@H](CC(C)C)NC(=O)[C@H](Cc1c[nH]c2ccccc12)NC(=O)[C@H](CCCCN)NC(=O)[C@H](CCCNC(=N)N)NC(=O)[C@H](CC(C)C)NC(=O)CNC(C)=O)C(=O)N[C@@H](CCCCN)C(=O)N[C@@H](CCCNC(=N)N)C(N)=O | – | 5 % erythrocyte suspension | 1 h, 37 °C | – | HC50 | 156 µM |
| CCCCCCCCCC(=O)NCCCC[C@H](NC(=O)[C@H](CCCCN)NC(=O)[C@@H]1CSCC(=O)N[C@@H](CCCCN)C(=O)N[C@@H](CC(C)C)C(=O)N[C@@H](CCCCN)C(=O)N[C@H]2CCCCNC(=O)[C@H](CCCCN)NC(=O)[C@H](CC(C)C)NC(=O)[C@H](CCCCN)NC(=O)CSC[C@H](NC(=O)[C@H](CC(C)C)NC(=O)[C@H](CC(C)C)NC(=O)[C@H](CCCCN)NC2=O)C(=O)N[C@@H](CC(C)C)C(=O)N[C@@H](CC(C)C)C(=O)N[C@@H](CC(C)C)C(=O)N1)C(N)=O | – | – | 4 h, pH 7.4, room temperature | – | minimal haemolytic concentration | 125 µg/mL |
| CC[C@H](C)[C@H](NC(=O)[C@H](CCCN)NC(=O)[C@H](CC(N)=O)NC(=O)[C@H](CC(C)C)NC(=O)[C@H](Cc1ccccc1)NC(=O)[C@H](CCCN)NC(=O)[C@H](CCCNC(=N)N)NC(=O)[C@H](CC(C)C)NC(=O)[C@H](CC(C)C)NC(=O)[C@H](CCCN)NC(=O)[C@H](CCCNC(=N)N)NC(=O)[C@H](CC(C)C)NC(=O)CNC(C)=O)C(=O)N[C@@H](CCCN)C(=O)N[C@@H](CCCNC(=N)N)C(N)=O | – | 5 % erythrocyte suspension | 1 h, 37 °C | – | HC50 | > 1000 µM |
| C[C@H](NC(=O)[C@H](CCCNC(=N)N)NC(=O)[C@H](CCCNC(=N)N)NC(=O)[C@@H]1CCCN1C(=O)CNC(=O)[C@H](CCCNC(=N)N)NC(=O)[C@H](CCCNC(=N)N)NC(=O)CN)C(=O)N[C@@H](CC(N)=O)C(=O)N[C@@H](CCC(N)=O)C(=O)N[C@@H](CC(N)=O)C(=O)NCC(=O)N[C@H](C(=O)N[C@@H](CCCNC(=N)N)C(=O)N[C@@H](CCCNC(=N)N)C(=O)N[C@@H](CCCNC(=N)N)C(=O)N[C@@H](CCCNC(=N)N)C(=O)N[C@@H](CCCNC(=N)N)C(=O)N[C@@H](CCCNC(=N)N)C(=O)N[C@H](C(N)=O)[C@@H](C)O)[C@@H](C)O | – | – | 100 µM, 24 h, pH 7.4, 37 °C, 0.25% v/v erythrocytes | – | maximum haemolysis | 7.2 ± 0.4% |
| CC(C)C[C@H](NC(=O)[C@H](Cc1ccccc1)NC(=O)[C@H](CCCNC(=N)N)NC(=O)[C@H](CCCCN)NC(=O)[C@H](Cc1ccc(-c2ccccc2)cc1)NC(=O)[C@@H](N)CCCNC(=N)N)C(=O)N[C@@H](CCCNC(=N)N)C(=O)N[C@@H](CC(N)=O)C(=O)N[C@@H](Cc1ccc(-c2ccccc2)cc1)C(=O)N[C@H](C(N)=O)C(C)C | haemolysis | – | 1 h, 37 °C | – | HC50 | ~30 µM |
| CC[C@H](C)[C@@H]1NC(=O)[C@H](C)NC(=O)[C@H](CCCNC(=N)N)NC(=O)[C@H](CCCNC(=N)N)NC(=O)[C@H](CC(N)=O)NC(=O)[C@H](CCCNC(=N)N)NC(=O)[C@H](C)NC(=O)[C@H](C(C)C)NC(=O)[C@H]([C@@H](C)CC)NC(=O)[C@H](C(C)C)NC(=O)[C@@H](NC(=O)[C@H](CCCCN)NC(=O)[C@@H](N)CCCNC(=N)N)CSSC[C@@H](C(=O)N[C@@H](CCCNC(=N)N)C(=O)O)NC(=O)[C@H](CC(C)C)NC(=O)[C@H]([C@@H](C)CC)NC1=O | – | – | 128 µg/mL, 3 h, 37 °C | baseline: Triton X-100 | hemolysis | -0.13% |
| CC(C)C[C@@H]1NC(=O)[C@H](CCCCN)NC(=O)CSC[C@@H](C(=O)N[C@@H](CCCCN)C(N)=O)NC(=O)[C@H](CCCCN)NC(=O)[C@H](CC(C)C)NC(=O)[C@H](CC(C)C)NC(=O)[C@@H]2CSCC(=O)N[C@@H](CCCCN)C(=O)N[C@@H](CC(C)C)C(=O)N[C@@H](CCCCN)C(=O)N[C@@H](CCCCNC(=O)[C@H](CCCCN)NC1=O)C(=O)N[C@@H](CCCCN)C(=O)N[C@@H](CC(C)C)C(=O)N[C@@H](CC(C)C)C(=O)N2 | – | – | 4 h, pH 7.4, room temperature | – | minimal haemolytic concentration | 2000 µg/mL |
| CC[C@H](C)[C@H](NC(=O)[C@H](CCCCN)NC(=O)[C@H](CS)NC(=O)[C@H](C)NC(=O)[C@H](CC(N)=O)NC(=O)[C@H](CCCNC(=N)N)NC(=O)[C@H](CCCNC(=N)N)NC(=O)[C@H](CC(N)=O)NC(=O)[C@H](CCCNC(=N)N)NC(=O)[C@H](CCCNC(=N)N)NC(=O)[C@H](C)NC(=O)[C@H](CS)NC(=O)[C@H](CO)NC(=O)[C@@H](NC(=O)[C@@H](NC(=O)[C@H](CS)NC(=O)[C@H](CCCCN)NC(=O)[C@@H](N)CCCNC(=N)N)C(C)C)[C@@H](C)CC)C(=O)N[C@@H](CC(C)C)C(=O)N[C@@H](CS)C(=O)N[C@@H](CC(N)=O)C(=O)O | – | – | 128 µg/mL, 3 h, 37 °C | baseline: Triton X-100 | hemolysis | -0.21% |
| CCCCCCCCCC(=O)NCCCC[C@H](NC(=O)[C@H](CCCCN)NC(=O)[C@@H]1CSCC(=O)N[C@@H](CCCCN)C(=O)N[C@@H](CC(C)C)C(=O)N[C@@H](CCCCN)C(=O)NCCCC[C@@H]2NC(=O)[C@H](CCCCN)NC(=O)[C@H](CC(C)C)NC(=O)[C@H](CCCCN)NC(=O)CSC[C@H](NC(=O)[C@H](CC(C)C)NC(=O)[C@H](CC(C)C)NC(=O)[C@H](CCCCN)NC2=O)C(=O)N[C@@H](CC(C)C)C(=O)N[C@@H](CC(C)C)C(=O)N[C@@H](CC(C)C)C(=O)N1)C(N)=O | – | – | 4 h, pH 7.4, room temperature | – | minimal haemolytic concentration | 125 µg/mL |
| CC[C@H](C)[C@H](NC(=O)[C@H](CCCNC(=N)N)NC(=O)[C@H](CCCNC(=N)N)NC(=O)[C@H](CCCNC(=N)N)NC(=O)[C@@H](NC(=O)[C@@H](NC(=O)[C@H](C)NC(=O)[C@H](CCCNC(=N)N)NC(=O)[C@H](CCCNC(=N)N)NC(=O)[C@H](CCCNC(=N)N)NC(=O)[C@@H]1CCCN1C(=O)[C@@H](N)CCCNC(=N)N)[C@@H](C)O)[C@@H](C)O)C(=O)N[C@H](C(=O)N[C@H](C(=O)NCC(=O)N[C@H](C(=O)N[C@@H](CCCNC(=N)N)C(=O)N[C@@H](CCCNC(=N)N)C(=O)N[C@@H](CCCNC(=N)N)C(=O)N[C@@H](CCCNC(=N)N)C(N)=O)[C@@H](C)O)[C@@H](C)O)[C@@H](C)O | – | – | 100 µM, 24 h, pH 7.4, 37 °C, 0.25% v/v erythrocytes | – | maximum haemolysis | 12 ± 0.4% |
